Measured values pooled from the literature.
Compare with care: the assays were run in different laboratories.
Cell line: HL-60

For `CC[C@H](C)[C@H](NC(=O)CN)C(=O)NCC(=O)N[C@@H](CCCCN)C(=O)N[C@@H](Cc1ccccc1)C(=O)N[C@@H](CC(C)C)C(=O)N[C@@H](Cc1c[nH]cn1)C(=O)N[C@@H](CO)C(=O)N[C@@H](C)C(=O)N[C@@H](CCCCN)C(=O)N[C@@H](CCCCN)C(=O)N[C@@H](Cc1ccccc1)C(=O)NCC(=O)N[C@@H](CCCCN)C(=O)N[C@@H](C)C(=O)N[C@@H](Cc1ccccc1)C(=O)N[C@H](C(=O)NCC(=O)N[C@@H](CCC(=O)O)C(=O)N[C@H](C(=O)N[C@@H](CCSC)C(=O)N[C@@H](CC(N)=O)C(=O)N[C@@H](CO)C(N)=O)[C@@H](C)CC)C(C)C`, cytotoxicity read “inactive” (MTT; 52 µM).
`F[P-](F)(F)(F)(F)F.F[P-](F)(F)(F)(F)F.[Ru+2].c1ccc(-c2ccccn2)nc1.c1ccc(-c2ccccn2)nc1.c1csc(-c2cc3cccnc3c3ncccc23)c1` gave an EC50 of over 300 µM (cell growth or viability, resazurin; dark).
`CC[C@H](C)[C@H](NC(=O)[C@H](CCCNC(=N)N)NC(=O)[C@H](CCCNC(=N)N)NC(=O)[C@H](CC(C)C)NC(=O)[C@H](Cc1c[nH]c2ccccc12)NC(=O)[C@H](CCCCN)NC(=O)[C@H](CCCNC(=N)N)NC(=O)[C@H](CCCCN)NC(=O)[C@H](CCCNC(=N)N)NC(=O)[C@H](CCCNC(=N)N)NC(=O)CN)C(=O)NCC(=O)N[C@@H](CCCCN)C(=O)NCC(=O)N[C@H](C(=O)N[C@@H](CCCCN)C(=O)N[C@H](C(=O)N[C@H](C(=O)NCC(=O)NCC(=O)N[C@@H](C)C(=O)N[C@@H](C)C(=O)N[C@@H](CC(C)C)C(=O)N[C@@H](CC(=O)O)C(=O)N[C@@H](Cc1c[nH]cn1)C(=O)N[C@@H](CC(C)C)C(N)=O)[C@@H](C)CC)[C@@H](C)CC)C(C)C` has a cell size of 16 µm (scanning electron microscopy; 32 µg/mL, 1 min).
With `C/C1=C\CC[C@@]2(C)O[C@H]2[C@H]2OC(=O)C(C)[C@@H]2CC1` (stereo partly shown) the IC50 was over 500 µM (cell growth or viability, resazurin).
`CC1CCC2C(C)C(OC(=O)CCC(=O)N(CCCc3cn(-c4ccc([N+](=O)[O-])cc4)nn3)CCNc3ccnc4cc(Cl)ccc34)OC3OC4(C)CCC1C32OO4` (stereo not shown) has an inhibition of 63.1% (cell growth or viability, resazurin; 10 µM, 48 h).
`F[P-](F)(F)(F)(F)F.F[P-](F)(F)(F)(F)F.[Ru+2].c1ccc(-c2ccccn2)nc1.c1ccc(-c2ccccn2)nc1.c1csc(-c2ccc(-c3ccc(-c4cc5cccnc5c5ncccc45)s3)s2)c1` gave a phototherapeutic index of 76 (cell viability; red light 625 nm; reference: dark EC50 over light EC50).
`COC(=O)c1ccc(-n2cc(CCCN(CCNc3ccnc4cc(Cl)ccc34)C(=O)CCC(=O)OC3OC4OC5(C)CCC6C(C)CCC(C3C)C46OO5)nn2)cc1` (stereo not shown) has an inhibition of 63.4% (cell growth or viability, resazurin; 10 µM, 48 h).
For `C[C@@H]1N=C(c2ccccc2)c2cc(C#CCCCC(=O)NO)ccc2N(C)C1=O`, the IC50 was 1.4 to 2.1 µM (apoptosis, flow cytometry; 48 h).
With `CCC(=C(c1ccc(Cl)cc1)c1ccc(OCCCN(C)C)cc1)c1ccc(OC)cc1` the GI50 was 1.15 µM (cell growth or viability, SRB).
`C#CCCCN(CCNc1ccnc2cc(Cl)ccc12)C(=O)CCC(=O)O[C@@H]1O[C@@H]2O[C@@]3(C)CC[C@H]4[C@H](C)CCC([C@H]1C)[C@@]24OO3` (stereo partly shown) gave an inhibition of 62.8% (cell growth or viability, resazurin; 10 µM, 48 h).

Excerpt of the above:
For `C[C@@H]1N=C(c2ccccc2)c2cc(C#CCCCC(=O)NO)ccc2N(C)C1=O`, the IC50 was 1.4 to 2.1 µM (apoptosis, flow cytometry; 48 h).
